Experimental data from different studies.
Parts stem from different laboratories: compare values within a part only.
Sequence of UniProt P10721 (whole entry, unmodified, looked up): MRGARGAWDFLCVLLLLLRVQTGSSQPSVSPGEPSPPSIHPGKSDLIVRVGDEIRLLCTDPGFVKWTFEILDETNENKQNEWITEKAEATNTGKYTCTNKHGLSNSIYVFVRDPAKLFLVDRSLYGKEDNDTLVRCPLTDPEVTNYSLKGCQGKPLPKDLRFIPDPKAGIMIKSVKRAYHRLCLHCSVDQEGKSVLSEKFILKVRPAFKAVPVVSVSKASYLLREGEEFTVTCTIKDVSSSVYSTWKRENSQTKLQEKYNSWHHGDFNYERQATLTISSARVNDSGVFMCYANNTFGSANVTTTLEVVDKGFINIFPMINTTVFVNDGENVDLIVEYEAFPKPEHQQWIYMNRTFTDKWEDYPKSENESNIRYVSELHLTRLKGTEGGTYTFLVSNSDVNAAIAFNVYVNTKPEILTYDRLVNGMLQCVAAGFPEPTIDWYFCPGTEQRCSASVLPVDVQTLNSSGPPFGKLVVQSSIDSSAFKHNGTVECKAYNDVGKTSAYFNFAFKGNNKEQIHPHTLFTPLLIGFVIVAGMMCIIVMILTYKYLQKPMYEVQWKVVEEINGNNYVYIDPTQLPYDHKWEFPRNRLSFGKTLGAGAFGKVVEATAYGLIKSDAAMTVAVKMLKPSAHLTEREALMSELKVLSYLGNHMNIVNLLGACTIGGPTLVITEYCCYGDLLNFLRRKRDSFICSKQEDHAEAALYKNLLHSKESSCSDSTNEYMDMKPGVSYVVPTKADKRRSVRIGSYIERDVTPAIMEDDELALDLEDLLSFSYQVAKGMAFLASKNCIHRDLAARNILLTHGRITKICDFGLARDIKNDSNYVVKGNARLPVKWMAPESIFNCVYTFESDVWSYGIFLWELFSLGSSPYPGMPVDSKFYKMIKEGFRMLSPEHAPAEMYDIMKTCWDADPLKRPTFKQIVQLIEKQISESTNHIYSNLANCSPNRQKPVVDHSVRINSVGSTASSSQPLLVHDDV
Sequence of UniProt P54646 (whole entry, looked up): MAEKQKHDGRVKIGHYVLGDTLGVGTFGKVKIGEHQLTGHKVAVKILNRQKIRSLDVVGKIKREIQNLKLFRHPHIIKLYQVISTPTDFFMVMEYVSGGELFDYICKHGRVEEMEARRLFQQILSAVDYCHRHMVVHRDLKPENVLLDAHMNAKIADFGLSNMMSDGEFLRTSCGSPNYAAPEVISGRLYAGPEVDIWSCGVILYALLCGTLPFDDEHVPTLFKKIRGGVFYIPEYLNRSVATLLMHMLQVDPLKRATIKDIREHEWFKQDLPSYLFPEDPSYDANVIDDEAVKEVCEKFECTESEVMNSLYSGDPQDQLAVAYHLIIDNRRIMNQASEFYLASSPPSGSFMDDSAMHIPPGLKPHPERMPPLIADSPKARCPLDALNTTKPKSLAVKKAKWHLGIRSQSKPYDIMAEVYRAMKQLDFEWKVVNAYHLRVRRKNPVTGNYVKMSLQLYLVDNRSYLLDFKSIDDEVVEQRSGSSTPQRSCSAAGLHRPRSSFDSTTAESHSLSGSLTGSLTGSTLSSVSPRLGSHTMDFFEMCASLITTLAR
Sequence of UniProt O60285 (whole entry, looked up): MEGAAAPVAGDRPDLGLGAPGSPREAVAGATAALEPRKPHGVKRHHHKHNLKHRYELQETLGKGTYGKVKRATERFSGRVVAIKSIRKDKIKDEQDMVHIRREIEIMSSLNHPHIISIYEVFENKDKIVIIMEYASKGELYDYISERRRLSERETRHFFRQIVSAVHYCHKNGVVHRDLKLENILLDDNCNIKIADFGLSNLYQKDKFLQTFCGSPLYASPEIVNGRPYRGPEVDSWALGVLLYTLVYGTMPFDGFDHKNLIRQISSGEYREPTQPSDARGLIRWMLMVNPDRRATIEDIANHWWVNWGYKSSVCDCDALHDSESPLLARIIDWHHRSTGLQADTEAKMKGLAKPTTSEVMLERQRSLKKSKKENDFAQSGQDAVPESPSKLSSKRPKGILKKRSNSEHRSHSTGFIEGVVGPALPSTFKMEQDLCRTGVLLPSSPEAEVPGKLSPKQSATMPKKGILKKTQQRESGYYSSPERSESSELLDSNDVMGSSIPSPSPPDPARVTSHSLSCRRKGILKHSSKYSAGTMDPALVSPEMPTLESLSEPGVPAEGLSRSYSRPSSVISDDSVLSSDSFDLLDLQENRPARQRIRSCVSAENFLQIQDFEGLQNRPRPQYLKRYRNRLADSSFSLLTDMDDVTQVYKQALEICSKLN

Study 1 — effect on: enzyme activity; mode: inhibitor; concentration: 77 µM; baseline: untreated; endpoint: remaining activity
Target: DNA polymerase theta, ATPase domain (POLQ, Homo sapiens, UniProt O75417)
Sequence of UniProt O75417 (whole entry, unmodified, looked up): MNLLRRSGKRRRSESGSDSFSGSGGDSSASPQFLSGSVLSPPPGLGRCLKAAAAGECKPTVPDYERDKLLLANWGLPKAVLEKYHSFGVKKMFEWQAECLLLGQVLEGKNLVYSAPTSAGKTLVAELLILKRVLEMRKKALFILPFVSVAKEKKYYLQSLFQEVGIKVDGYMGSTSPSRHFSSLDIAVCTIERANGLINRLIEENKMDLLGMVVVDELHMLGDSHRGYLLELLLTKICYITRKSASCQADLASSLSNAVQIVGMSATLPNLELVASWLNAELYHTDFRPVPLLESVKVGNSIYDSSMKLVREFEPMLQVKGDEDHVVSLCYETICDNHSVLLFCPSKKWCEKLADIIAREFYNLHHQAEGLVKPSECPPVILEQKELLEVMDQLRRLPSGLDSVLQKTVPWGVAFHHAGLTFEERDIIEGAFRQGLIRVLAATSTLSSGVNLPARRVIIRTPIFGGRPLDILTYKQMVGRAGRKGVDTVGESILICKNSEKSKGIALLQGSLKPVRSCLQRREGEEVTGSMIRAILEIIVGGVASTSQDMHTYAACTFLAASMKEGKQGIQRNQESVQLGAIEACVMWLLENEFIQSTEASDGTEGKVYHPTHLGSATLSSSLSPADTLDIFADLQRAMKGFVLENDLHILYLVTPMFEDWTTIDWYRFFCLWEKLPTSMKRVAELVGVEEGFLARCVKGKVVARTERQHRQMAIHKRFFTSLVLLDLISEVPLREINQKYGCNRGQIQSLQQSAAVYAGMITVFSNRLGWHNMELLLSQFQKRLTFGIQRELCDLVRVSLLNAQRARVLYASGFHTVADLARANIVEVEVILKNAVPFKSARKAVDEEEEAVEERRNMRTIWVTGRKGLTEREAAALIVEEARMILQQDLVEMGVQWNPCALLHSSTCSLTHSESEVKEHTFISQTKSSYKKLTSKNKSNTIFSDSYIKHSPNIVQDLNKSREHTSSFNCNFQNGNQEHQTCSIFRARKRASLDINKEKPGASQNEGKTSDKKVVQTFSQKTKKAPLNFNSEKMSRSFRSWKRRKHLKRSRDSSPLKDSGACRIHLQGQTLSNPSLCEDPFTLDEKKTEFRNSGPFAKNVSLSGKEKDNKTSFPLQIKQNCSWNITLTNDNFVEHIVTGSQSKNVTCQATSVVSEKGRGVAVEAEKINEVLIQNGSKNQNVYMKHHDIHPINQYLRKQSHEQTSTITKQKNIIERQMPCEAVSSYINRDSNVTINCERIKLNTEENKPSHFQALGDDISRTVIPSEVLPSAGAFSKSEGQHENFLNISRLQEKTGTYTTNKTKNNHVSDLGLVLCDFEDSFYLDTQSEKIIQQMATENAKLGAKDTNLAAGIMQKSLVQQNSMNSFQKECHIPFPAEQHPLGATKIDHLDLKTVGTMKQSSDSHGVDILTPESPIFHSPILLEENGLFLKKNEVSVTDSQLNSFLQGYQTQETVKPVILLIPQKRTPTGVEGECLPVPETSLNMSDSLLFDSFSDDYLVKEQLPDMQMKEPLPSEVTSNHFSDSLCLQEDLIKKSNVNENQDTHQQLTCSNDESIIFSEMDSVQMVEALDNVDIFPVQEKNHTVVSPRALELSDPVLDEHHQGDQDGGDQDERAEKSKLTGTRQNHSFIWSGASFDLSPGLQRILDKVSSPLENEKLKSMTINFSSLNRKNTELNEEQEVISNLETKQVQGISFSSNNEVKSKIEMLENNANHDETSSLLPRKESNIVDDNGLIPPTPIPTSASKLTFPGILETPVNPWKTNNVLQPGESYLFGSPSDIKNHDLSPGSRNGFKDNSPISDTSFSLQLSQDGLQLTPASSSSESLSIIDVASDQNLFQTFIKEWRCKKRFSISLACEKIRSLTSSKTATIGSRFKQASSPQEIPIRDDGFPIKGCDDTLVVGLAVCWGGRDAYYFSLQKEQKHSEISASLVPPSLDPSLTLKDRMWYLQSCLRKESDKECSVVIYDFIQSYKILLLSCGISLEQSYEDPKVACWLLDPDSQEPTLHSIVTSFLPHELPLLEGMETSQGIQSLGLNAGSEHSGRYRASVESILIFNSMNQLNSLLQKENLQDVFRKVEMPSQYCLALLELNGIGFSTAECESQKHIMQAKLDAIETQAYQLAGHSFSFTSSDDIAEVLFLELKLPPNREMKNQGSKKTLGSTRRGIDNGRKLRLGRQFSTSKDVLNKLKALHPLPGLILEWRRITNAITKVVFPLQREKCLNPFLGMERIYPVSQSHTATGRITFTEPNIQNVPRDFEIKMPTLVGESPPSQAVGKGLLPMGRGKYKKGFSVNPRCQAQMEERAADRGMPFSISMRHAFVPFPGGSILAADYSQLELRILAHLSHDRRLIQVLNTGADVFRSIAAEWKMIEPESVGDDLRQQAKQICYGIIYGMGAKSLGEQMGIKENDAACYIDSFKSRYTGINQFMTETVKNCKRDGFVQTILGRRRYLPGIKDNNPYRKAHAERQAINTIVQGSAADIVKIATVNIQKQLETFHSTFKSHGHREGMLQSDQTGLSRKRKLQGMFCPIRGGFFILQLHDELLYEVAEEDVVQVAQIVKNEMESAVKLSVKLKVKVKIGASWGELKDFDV
O=C1Cc2cc(CCN3CCN(c4nsc5ccccc45)CC3)c(Cl)cc2N1: 97.4%
CCOC(=O)c1c(CSc2ccccc2)n(C)c2cc(Br)c(O)c(CN(C)C)c12: 98.5%
O=C1NCCc2[nH]c(-c3ccncc3)cc21: 84.8%
Nc1nc(Cl)nc2c1ncn2[C@@H]1O[C@H](CO)[C@@H](O)[C@@H]1F: 94.5%
c1ccc(CN2CCC3(CCCc4ccccc43)CC2)cc1: 102%
CC(C)C[C@H](NC(=O)[C@@H]1O[C@H]1C(=O)O)C(=O)NCCCCN=C(N)N: 99.1%
CC(=O)N[C@H]1[C@H]([C@H](O)[C@H](O)CO)OC(C(=O)O)=C[C@@H]1NC(=N)N: 102%
Cn1sc(=O)n(Cc2ccccc2)c1=O: 102%
C[C@@H](O[C@H]1OCCN(Cc2nn(P(=O)(O)O)c(=O)[nH]2)[C@H]1c1ccc(F)cc1)c1cc(C(F)(F)F)cc(C(F)(F)F)c1: 102%
Cc1cccc(-c2nn3c(c2-c2ccnc4ccc(C(N)=O)cc24)CCC3)n1: 103%
[NH-]c1c[n+](N2CCOCC2)no1: 101%
CN1CCC(=C2c3ccccc3CCc3cccnc32)CC1: 86.9%
O=C(Nc1ccc2c(c1)CCN(Cc1ncn[nH]1)C2)c1ccccc1-c1ccc(C(F)(F)F)cc1: 98.5%
CNC(=O)Nc1ccc(-c2nc(N3CC4CCC(C3)O4)c3cnn(C4CCC5(CC4)OCCO5)c3n2)cc1: 98.2%

Study 2 — mode: inhibitor; concentration: 1 µM; endpoint: inhibition
SMILES: CO[C@@H]1[C@H](N(C)C(=O)c2ccccc2)C[C@H]2O[C@]1(C)n1c3ccccc3c3c4c(c5c6ccccc6n2c5c31)C(=O)NC4
Tyrosine-protein kinase JAK1, JH1 kinase domain (JAK1, Homo sapiens, UniProt P23458): 13%
LATS1 (Homo sapiens, UniProt O95835); enzyme activity: 74%
NEK5 (Homo sapiens, UniProt Q6P3R8); enzyme activity: 0%
PRKAA2 (Homo sapiens, UniProt P54646); enzyme activity: 79%
NUAK1 (Homo sapiens, UniProt O60285); enzyme activity: 97%
Myosin-IIIa (MYO3A, Homo sapiens, UniProt Q8NEV4); enzyme activity: 7%
MAPK9 (Homo sapiens, UniProt P45984); enzyme activity: 5%
Tyrosine-protein kinase ABL1, phosphorylated (ABL1, Homo sapiens, UniProt P00519, H396P); enzyme activity: 28%
KIT (Homo sapiens, UniProt P10721); enzyme activity: 92%
SBK3 (Homo sapiens, UniProt P0C264); enzyme activity: 0%
DCLK1 (Homo sapiens, UniProt O15075); enzyme activity: 18%
DAPK2 (Homo sapiens, UniProt Q9UIK4); enzyme activity: 49%
PIP4K2C (Homo sapiens, UniProt Q8TBX8); enzyme activity: 0%

Study 3 — technique: competition with immobilised ligand; concentration: 1 µM; endpoint: remaining binding
Structure (SMILES): O=C(N1CCS(=O)(=O)CC1)N1C[C@H](c2ccc(OC(F)(F)F)cc2)C[C@H](c2nc(C3CC3)no2)C1
STK38L (Homo sapiens, UniProt Q9Y2H1); binding: 100%
FGFR3 (Homo sapiens, UniProt P22607); cell-free assay: 100%
PIK3CD (Homo sapiens, UniProt O00329); cell-free assay: 97%
AKT2 (Homo sapiens, UniProt P31751); cell-free assay: 90%
PAK5 (Homo sapiens, UniProt Q9P286); cell-free assay: 100%
PHKG1 (Homo sapiens, UniProt Q16816); cell-free assay: 94%
EGFR (Homo sapiens, UniProt P00533, del746-750); cell-free assay: 92%
PAK1 (Homo sapiens, UniProt Q13153); cell-free assay: 100%
TBK1 (Homo sapiens, UniProt Q9UHD2); cell-free assay: 94%
CIT (Homo sapiens, UniProt O14578); cell-free assay: 100%
Ribosomal protein S6 kinase alpha-3, N-terminal kinase domain (RPS6KA3, Homo sapiens, UniProt P51812); cell-free assay: 100%
LCK (Homo sapiens, UniProt P06239); cell-free assay: 100%
KIT (Homo sapiens, UniProt P10721, D816V); cell-free assay: 100%
PRKCD (Homo sapiens, UniProt Q05655); cell-free assay: 100%
SGK2 (Homo sapiens, UniProt Q9HBY8); cell-free assay: 76%
DCLK2 (Homo sapiens, UniProt Q8N568); cell-free assay: 0%

Study 4 — effect on: enzyme activity; mode: inhibitor; concentration: 0.5 µM; baseline: control; endpoint: remaining activity
Target: Serine/threonine-protein kinase pim-2 (PIM2, Homo sapiens, UniProt Q9P1W9)
Sequence of UniProt Q9P1W9 (whole entry, looked up): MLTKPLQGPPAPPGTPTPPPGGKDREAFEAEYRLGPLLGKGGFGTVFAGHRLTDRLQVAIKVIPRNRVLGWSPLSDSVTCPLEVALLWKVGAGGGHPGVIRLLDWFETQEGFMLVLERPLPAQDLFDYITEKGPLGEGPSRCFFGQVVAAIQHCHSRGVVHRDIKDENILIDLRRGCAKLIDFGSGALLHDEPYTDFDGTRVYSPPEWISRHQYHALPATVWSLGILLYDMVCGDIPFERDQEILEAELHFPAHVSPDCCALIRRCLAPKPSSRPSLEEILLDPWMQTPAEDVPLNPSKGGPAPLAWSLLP
COc1cc2ncnc(Nc3cccc(Cl)c3)c2cc1OC: 104%
c1ccc(-c2cnc(Nc3ccc(OCCN4CCCC4)cc3)s2)cc1: 108%
COc1cc2c(cc1OC)-c1[nH]nc(Nc3cccc(F)c3)c1C2: 119%
C[C@@H]1CCN(C(=O)CC#N)C[C@@H]1N(C)c1ncnc2[nH]ccc12: 116%
CCOc1nc(NC(=O)Cc2cc(OC)ccc2OC)cc(N)c1C#N: 104%
CCN(CC)C(=O)c1ccc(Nc2nc(OCC3CCCCC3)c3[nH]cnc3n2)cc1: 105%
Cc1cc2ncc(-c3ccccc3)nc2cc1C: 81%
O=C1c2ccccc2-c2n[nH]c3cccc1c23: 85.9%
Cc1nc2cc3nc(-c4cccs4)cnc3cc2n1C: 114%
O=C(NC(NC(=S)Nc1ccc(F)c([N+](=O)[O-])c1)C(Cl)(Cl)Cl)C(c1ccccc1)c1ccccc1 (stereo not shown): 117%
O=C1C(Cl)=C(N2C(=O)CCC2=O)C(=O)c2ccccc21: 123%
O=c1cc(-c2cccc3c2Sc2ccccc2S3)oc(N2CCOCC2)c1: 118%
Nc1cccc(-c2cc3c(Oc4cccc(O)c4)ncnc3[nH]2)c1: 108%
Ic1cccc(CSc2nnc(-c3ccncc3)o2)c1: 102%
COc1cc2ncnc(Nc3ccc(O)c(Br)c3)c2cc1OC: 94.1%
CN([C@@H](Cc1ccc(OS(=O)(=O)c2cccc3cnccc23)cc1)C(=O)N1CCN(c2ccccc2)CC1)S(=O)(=O)c1cccc2cnccc12: 98.5%
N#Cc1c(NC(=O)c2cccc3ccccc23)sc2c1CCCC2: 104%
CN(C)C[C@H]1CCn2c(c(C3=C(c4cn(C)c5ccccc45)C(=O)NC3=O)c3ccccc32)C1: 102%
CCN(CC)CCNC(=O)c1c(C)[nH]c(/C=C2\C(=O)Nc3ccc(Cl)cc32)c1C: 101%
N#C/C(=C\c1ccc(O)c(O)c1)C(=O)NCc1ccccc1: 97.1%
O=C(Nc1cccc(Nc2nccc(Nc3cccc(C(F)(F)F)c3)n2)c1)C1CC1: 112%
Cc1cn(-c2cc(NC(=O)c3ccc(C)c(Nc4nccc(-c5cccnc5)n4)c3)cc(C(F)(F)F)c2)cn1: 98.1%
Cn1nc2c3c(cccc31)C(=O)c1ccccc1-2: 105%
c1ccc(-c2[nH]ncc2-c2ccnc3ccccc23)nc1: 115%

Some of these lines once more (study 1):
CCOC(=O)c1c(CSc2ccccc2)n(C)c2cc(Br)c(O)c(CN(C)C)c12: 98.5%
O=C1NCCc2[nH]c(-c3ccncc3)cc21: 84.8%
Nc1nc(Cl)nc2c1ncn2[C@@H]1O[C@H](CO)[C@@H](O)[C@@H]1F: 94.5%
c1ccc(CN2CCC3(CCCc4ccccc43)CC2)cc1: 102%
CC(C)C[C@H](NC(=O)[C@@H]1O[C@H]1C(=O)O)C(=O)NCCCCN=C(N)N: 99.1%
CC(=O)N[C@H]1[C@H]([C@H](O)[C@H](O)CO)OC(C(=O)O)=C[C@@H]1NC(=N)N: 102%
